Experimental data of several laboratories.
Parts stem from different laboratories: compare values within a part only. “And” joins repeats or separate records; there may be more than shown. Positions count from the first letter of the parent shown.
Sequence of UniProt Q8IYT8 (whole entry, looked up): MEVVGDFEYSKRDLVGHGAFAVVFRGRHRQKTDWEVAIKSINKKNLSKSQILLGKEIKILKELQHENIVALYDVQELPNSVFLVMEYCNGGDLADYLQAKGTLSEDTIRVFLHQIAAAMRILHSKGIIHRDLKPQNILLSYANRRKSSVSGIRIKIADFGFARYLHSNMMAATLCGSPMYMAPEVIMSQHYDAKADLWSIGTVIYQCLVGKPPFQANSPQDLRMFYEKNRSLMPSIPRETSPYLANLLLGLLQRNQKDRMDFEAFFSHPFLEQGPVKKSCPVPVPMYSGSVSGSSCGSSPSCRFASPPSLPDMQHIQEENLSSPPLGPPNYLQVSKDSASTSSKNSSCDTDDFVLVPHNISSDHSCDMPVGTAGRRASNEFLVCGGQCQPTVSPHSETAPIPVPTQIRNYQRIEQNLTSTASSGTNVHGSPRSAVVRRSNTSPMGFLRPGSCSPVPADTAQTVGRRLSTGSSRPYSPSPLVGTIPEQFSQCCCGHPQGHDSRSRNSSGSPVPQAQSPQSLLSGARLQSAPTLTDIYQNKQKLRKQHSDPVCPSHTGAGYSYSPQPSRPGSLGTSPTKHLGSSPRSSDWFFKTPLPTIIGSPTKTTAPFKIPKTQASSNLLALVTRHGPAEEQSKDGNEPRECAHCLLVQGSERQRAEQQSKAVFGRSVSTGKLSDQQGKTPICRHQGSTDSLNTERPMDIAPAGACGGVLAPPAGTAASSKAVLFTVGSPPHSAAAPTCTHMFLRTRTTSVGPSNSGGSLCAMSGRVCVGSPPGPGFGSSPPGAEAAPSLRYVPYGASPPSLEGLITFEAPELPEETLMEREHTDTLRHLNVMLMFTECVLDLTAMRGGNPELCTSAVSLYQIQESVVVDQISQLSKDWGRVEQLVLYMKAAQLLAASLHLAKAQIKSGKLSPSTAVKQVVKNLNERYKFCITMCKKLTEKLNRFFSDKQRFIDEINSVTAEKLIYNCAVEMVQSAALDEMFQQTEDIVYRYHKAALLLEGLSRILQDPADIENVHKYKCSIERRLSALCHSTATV
Sequence of UniProt P06239 (whole entry, looked up): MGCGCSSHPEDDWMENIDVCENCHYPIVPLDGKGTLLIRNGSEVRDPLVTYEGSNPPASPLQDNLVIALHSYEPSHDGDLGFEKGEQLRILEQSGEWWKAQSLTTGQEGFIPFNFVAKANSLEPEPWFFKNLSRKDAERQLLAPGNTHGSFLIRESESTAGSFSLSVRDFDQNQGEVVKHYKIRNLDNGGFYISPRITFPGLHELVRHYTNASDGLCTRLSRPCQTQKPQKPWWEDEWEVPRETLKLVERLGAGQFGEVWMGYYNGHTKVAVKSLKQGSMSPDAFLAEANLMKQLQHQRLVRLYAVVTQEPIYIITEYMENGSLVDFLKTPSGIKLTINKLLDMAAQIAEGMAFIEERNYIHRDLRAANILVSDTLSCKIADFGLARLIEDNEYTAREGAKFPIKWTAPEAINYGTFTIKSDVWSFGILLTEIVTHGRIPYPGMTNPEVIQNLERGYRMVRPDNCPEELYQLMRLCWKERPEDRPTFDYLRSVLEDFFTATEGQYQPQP
Sequence of UniProt Q9BYT3 (whole entry, looked up): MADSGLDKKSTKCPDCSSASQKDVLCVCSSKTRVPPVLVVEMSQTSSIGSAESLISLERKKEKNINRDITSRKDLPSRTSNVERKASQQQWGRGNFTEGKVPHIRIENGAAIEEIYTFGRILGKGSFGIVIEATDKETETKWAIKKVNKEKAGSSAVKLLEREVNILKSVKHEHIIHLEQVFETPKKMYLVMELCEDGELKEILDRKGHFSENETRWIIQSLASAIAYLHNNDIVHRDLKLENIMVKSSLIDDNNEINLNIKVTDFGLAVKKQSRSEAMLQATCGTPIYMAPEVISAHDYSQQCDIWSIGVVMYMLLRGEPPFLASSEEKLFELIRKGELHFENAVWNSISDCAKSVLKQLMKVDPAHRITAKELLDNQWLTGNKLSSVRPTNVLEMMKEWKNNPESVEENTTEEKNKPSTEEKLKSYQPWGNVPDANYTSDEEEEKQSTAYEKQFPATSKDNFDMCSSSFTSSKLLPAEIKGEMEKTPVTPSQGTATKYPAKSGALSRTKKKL
Sequence of UniProt Q9HBH9 (whole entry, looked up): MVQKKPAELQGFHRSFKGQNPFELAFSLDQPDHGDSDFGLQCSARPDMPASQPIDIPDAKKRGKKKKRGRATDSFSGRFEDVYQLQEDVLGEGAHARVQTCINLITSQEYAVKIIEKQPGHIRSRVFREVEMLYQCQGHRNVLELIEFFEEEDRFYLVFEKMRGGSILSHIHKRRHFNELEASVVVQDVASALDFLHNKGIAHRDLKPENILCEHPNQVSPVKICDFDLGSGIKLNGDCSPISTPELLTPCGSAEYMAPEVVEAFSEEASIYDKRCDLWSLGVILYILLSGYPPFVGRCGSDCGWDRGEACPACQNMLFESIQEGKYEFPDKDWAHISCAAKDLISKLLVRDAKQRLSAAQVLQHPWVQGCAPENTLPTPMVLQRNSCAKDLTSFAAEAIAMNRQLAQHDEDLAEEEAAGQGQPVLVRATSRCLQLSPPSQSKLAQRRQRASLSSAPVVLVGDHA
Sequence of UniProt Q8IVH8 (whole entry, looked up): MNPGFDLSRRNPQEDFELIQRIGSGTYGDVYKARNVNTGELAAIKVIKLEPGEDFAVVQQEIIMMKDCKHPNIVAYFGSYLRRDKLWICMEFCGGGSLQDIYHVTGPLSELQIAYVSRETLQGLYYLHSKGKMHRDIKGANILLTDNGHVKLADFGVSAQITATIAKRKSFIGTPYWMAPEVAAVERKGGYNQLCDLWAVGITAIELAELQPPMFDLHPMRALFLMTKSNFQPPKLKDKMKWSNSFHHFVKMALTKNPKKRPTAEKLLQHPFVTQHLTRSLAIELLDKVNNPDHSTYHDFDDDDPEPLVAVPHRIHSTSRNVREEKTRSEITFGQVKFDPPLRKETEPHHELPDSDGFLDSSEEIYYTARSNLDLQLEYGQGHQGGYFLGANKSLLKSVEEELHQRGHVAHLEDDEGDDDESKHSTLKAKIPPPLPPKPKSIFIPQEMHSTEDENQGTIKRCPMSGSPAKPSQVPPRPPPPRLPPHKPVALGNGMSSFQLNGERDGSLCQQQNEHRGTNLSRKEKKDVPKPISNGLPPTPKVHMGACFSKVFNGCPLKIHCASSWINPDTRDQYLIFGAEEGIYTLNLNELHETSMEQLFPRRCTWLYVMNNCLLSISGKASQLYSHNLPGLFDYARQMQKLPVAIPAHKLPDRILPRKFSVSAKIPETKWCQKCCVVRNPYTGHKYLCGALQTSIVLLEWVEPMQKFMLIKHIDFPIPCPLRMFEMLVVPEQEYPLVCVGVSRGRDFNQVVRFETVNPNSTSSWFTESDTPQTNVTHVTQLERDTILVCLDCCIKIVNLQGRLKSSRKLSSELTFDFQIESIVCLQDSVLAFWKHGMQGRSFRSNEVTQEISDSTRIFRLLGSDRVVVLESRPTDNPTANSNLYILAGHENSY
Sequence of UniProt Q8WTQ7 (whole entry, looked up): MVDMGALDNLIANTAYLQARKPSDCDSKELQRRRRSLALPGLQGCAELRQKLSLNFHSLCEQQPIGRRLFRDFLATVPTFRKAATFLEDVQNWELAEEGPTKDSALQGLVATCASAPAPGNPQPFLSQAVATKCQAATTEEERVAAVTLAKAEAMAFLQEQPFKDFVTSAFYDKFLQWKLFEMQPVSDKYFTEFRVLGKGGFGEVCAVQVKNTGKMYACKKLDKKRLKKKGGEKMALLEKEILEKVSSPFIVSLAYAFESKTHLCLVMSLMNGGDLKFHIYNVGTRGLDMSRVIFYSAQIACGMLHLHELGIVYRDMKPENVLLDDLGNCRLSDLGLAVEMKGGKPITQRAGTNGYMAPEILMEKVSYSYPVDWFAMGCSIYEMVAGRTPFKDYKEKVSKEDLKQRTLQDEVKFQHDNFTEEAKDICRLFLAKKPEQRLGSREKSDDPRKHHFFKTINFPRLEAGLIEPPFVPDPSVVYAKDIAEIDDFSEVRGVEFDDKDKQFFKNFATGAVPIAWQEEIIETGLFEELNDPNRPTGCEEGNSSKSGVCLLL
Sequence of UniProt Q16288 (whole entry, looked up): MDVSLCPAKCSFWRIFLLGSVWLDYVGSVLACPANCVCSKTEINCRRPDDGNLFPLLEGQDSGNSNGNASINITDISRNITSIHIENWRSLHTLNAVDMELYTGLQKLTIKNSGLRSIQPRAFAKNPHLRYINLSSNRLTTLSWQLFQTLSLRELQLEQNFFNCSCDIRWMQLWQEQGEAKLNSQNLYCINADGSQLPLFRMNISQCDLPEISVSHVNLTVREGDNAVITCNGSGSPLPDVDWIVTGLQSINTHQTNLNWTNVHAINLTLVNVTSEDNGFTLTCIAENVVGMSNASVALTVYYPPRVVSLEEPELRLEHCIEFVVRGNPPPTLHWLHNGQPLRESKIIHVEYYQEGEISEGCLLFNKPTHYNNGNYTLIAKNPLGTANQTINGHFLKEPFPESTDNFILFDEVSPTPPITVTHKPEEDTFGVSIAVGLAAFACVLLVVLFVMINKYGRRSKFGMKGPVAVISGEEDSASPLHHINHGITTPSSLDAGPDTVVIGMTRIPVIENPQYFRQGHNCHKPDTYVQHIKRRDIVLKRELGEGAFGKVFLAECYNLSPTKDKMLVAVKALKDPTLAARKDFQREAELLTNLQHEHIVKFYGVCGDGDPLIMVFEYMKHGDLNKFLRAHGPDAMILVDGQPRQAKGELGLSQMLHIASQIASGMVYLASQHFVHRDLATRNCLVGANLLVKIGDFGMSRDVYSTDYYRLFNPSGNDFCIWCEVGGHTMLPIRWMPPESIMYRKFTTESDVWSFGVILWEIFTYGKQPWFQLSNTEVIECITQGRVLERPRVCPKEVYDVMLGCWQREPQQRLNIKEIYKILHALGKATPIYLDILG

Set 1
Structure (SMILES): CC(C)CC(=O)N1CCc2nc(-c3ccc(Br)cc3)nc(N(C)Cc3ccccc3)c2C1
Read-out: cell-free assay
Method: competition with immobilised ligand
Tested at: 0.1 µM
The remaining binding was 73% (MKNK2 (Homo sapiens, UniProt Q9HBH9)).
The remaining binding was 100% (NTRK3 (Homo sapiens, UniProt Q16288)).
It gave 100% for remaining binding (CDK11B (Homo sapiens, UniProt P21127)).
For MTOR (Homo sapiens, UniProt P42345): remaining binding read 89%.
The remaining binding was 100% (PTK6 (Homo sapiens, UniProt Q13882)).
MAP4K3 (Homo sapiens, UniProt Q8IVH8) — remaining binding: 95%.
For PDGFRB (Homo sapiens, UniProt P09619): remaining binding read 100%.
For STK33 (Homo sapiens, UniProt Q9BYT3): remaining binding read 74%.

Set 2
Structure (SMILES): CN1CC[C@@H](c2c(O)cc(O)c3c(=O)cc(-c4ccccc4Cl)oc23)[C@@H]1CO
Cell line: HH
Method: trypan blue exclusion
Time: 48 h
Relative to: untreated
It gave 94.9% and 91.4% and 92.6% for viability (0.1 µM).
The viability was 96.6% and 88.2% and 100% (0.05 µM).
It gave 61.8% and 62.3% and 55.6% for viability (0.5 µM).
0.01 µM — viability: 91.1% and 97.7% and 89.5%.
It gave 107% and 103% for viability (0.001 µM).
The viability was 2.79% and 0% and 1.07% (10 µM).
1 µM — viability: 13.3% and 12.9% and 9.11%.

Set 3
SMILES: COc1ccc2c(c[n+](C)c3c4cc5c(cc4ccc23)OCO5)c1OC
Read-out: enzyme activity
Action: inhibitor
Tested at: 0.5 µM
Relative to: control
For EPHA3 (Homo sapiens, UniProt P29320): remaining activity read 94.9%.
It gave 103% for remaining activity (MAPKAPK2 (Homo sapiens, UniProt P49137)).
GRK7 (Homo sapiens, UniProt Q8WTQ7) — remaining activity: 101%.
For LCK (Homo sapiens, UniProt P06239): remaining activity read 89%.
It gave 96.8% for remaining activity (CSNK1G2 (Homo sapiens, UniProt P78368)).
For MAP3K14 (Homo sapiens, UniProt Q99558): remaining activity read 88.1%.
The remaining activity was 90.8% (MERTK (Homo sapiens, UniProt Q12866)).
It gave 92% for remaining activity (ULK2 (Homo sapiens, UniProt Q8IYT8)).
The remaining activity was 95% (TAOK2 (Homo sapiens, UniProt Q9UL54)).

Set 4
Target: CCNB3, cyclin fold, Cln2 fusion (human)
Method: yeast growth competition, sequencing
Medium: yeast
Setting: strong parent motif
Relative to: not given
Reading: higher = stronger binding
Starting sequence: viral docking peptide; YKVKRRLVFGADD; partner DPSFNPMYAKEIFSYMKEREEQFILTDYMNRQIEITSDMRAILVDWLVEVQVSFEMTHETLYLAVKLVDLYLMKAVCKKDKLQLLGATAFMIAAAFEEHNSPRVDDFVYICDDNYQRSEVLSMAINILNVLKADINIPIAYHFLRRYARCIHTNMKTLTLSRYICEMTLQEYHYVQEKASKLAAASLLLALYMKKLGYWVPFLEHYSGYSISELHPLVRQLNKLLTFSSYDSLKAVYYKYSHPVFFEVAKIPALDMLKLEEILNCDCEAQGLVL
`YKVKRRYVFGADD [L7Y]` — result for “normalised enrichment score”: 0.0732.
`YKVKRLLVFGADD [R6L]` — result for “normalised enrichment score”: 0.813.
`YKHKRRLVFGADD [V3H]` — result for “normalised enrichment score”: -0.0587.
`YKVKRRLSFGADD [V8S]` — result for “normalised enrichment score”: 2.13.
`YKVKRRLHFGADD [V8H]`: “normalised enrichment score” 1.34.
For `YKVKRELVFGADD [R6E]`, “normalised enrichment score” read -0.0977.
`YKVKRRLVYGADD [F9Y]`: “normalised enrichment score” 1.09.
`YKVKCRLVFGADD [R5C]` — result for “normalised enrichment score”: 0.527.
`YKVERRLVFGADD [K4E]`: “normalised enrichment score” -0.163.
Under “normalised enrichment score”, `YKVKRRAVFGADD [L7A]` is recorded as -0.156.
`YKVKERLVFGADD [R5E]`: “normalised enrichment score” 0.184.
Under “normalised enrichment score”, `YKVKRRLVFGLDD [A11L]` is recorded as 1.87.
`YKVKGRLVFGADD [R5G]`: “normalised enrichment score” -0.0521.
`YKVRRRLVFGADD [K4R]`: “normalised enrichment score” 3.74.
`YKVKRRLVHGADD [F9H]`: “normalised enrichment score” 0.0094.
Under “normalised enrichment score”, `YKVKKRLVFGADD [R5K]` is recorded as 0.772.
`YQVKRRLVFGADD [K2Q]` — result for “normalised enrichment score”: 2.39.
For `YKVKARAVFGADD [R5A L7A]`, “normalised enrichment score” read 0.171.
Under “normalised enrichment score”, `YKVKRRLVEGADD [F9E]` is recorded as 0.132.
`YKVKMRLVFGADD [R5M]` — result for “normalised enrichment score”: 0.277.
`YKVKRRLPFGADD [V8P]`: “normalised enrichment score” 0.307.
For `YKMKRRLVFGADD [V3M]`, “normalised enrichment score” read 0.337.
`YKVKRRLVFGWDD [A11W]`: “normalised enrichment score” 1.33.
`YKVSRRLVFGADD [K4S]`: “normalised enrichment score” 0.986.
Under “normalised enrichment score”, `YKPKRRLVFGADD [V3P]` is recorded as 0.751.

Single results of other studies
The inhibition of C[C@]12CC[C@H](O)CC1=CC[C@@H]1[C@@H]2CC[C@@]2(C)[C@H]1CC[C@]2(C)O is reported as -11.9% (Sarcocystis neurona; parasite growth; 10 µM, 96 h, secondary screen).
